{"data": "Assay results gathered from unrelated publications", "note": "Every numbered part comes from another study and shows a few of its results, in no order. Substitutions count along the parent as printed."}
{"data": "Study 1", "target": "CCNF, cyclin fold, Cln2 fusion (human)", "method": "yeast growth competition, sequencing", "matrix": "yeast", "notes": "strong parent motif", "reference": "not given", "reading": "higher = stronger binding", "starting sequence": "BRCA2 docking peptide (human); PSIKRNLLNEFDR"}
{"Variant": "P1A", "normalised enrichment score": 3.06}
{"Variant": "F11L", "normalised enrichment score": 1.44}
{"Variant": "E10A", "normalised enrichment score": 1.98}
{"Variant": "N6S", "normalised enrichment score": 2.42}
{"Variant": "E10D", "normalised enrichment score": 4.67}
{"Variant": "K4D", "normalised enrichment score": 0.414}
{"Variant": "F11R", "normalised enrichment score": 0.962}
{"Variant": "R13D", "normalised enrichment score": 2.48}
{"Variant": "F11Y", "normalised enrichment score": 1.8}
{"Variant": "I3G", "normalised enrichment score": 1.75}
{"Variant": "L8S", "normalised enrichment score": 1.32}
{"Variant": "L8M", "normalised enrichment score": 5.16}
{"Variant": "S2W", "normalised enrichment score": 1.82}
{"Variant": "E10K", "normalised enrichment score": 1.28}
{"Variant": "R13I", "normalised enrichment score": 2.84}
{"Variant": "N6Y", "normalised enrichment score": 1.56}
{"Variant": "N9K", "normalised enrichment score": 4.24}
{"Variant": "L7E", "normalised enrichment score": 0.618}
{"Variant": "K4V", "normalised enrichment score": 2.58}
{"Variant": "D12V", "normalised enrichment score": 3.21}
{"Variant": "R13G", "normalised enrichment score": 2.54}
{"Variant": "N9S", "normalised enrichment score": 3.61}
{"Variant": "E10F", "normalised enrichment score": 2.61}
{"Variant": "K4M", "normalised enrichment score": 1.77}
{"data": "Study 2", "target": "Ras GTPase-activating protein-binding protein 1, full length (G3BP1, Homo sapiens, UniProt Q13283)", "method": "RNA Bind-n-Seq", "form": "RNA", "matrix": "in vitro", "concentration": "200 nM", "notes": "whole 134-nt RNA, ends assumed", "with": "150 mM KCl", "reference": "input library", "reading": "higher = stronger binding", "chain of UniProt Q13283 (whole entry, looked up)": "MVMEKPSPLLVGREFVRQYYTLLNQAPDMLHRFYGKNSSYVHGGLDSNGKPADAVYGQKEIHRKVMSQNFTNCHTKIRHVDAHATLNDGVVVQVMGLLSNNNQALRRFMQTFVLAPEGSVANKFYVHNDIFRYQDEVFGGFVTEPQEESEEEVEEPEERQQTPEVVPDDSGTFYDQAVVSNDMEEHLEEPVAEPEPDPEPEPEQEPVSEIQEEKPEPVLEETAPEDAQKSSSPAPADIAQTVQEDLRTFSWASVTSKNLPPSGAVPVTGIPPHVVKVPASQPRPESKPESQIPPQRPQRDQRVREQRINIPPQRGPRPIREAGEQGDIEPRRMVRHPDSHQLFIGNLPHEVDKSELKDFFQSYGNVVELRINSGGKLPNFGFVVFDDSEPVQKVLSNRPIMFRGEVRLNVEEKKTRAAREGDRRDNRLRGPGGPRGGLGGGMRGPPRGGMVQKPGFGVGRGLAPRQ"}
{"Sequence": "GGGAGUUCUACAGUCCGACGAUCCACAGACGACACGCACCCACACAGACACAGAGGGAAGGGGUUGGGAUGGGGACAGGGUGCACAGCAGGGCGGGGUAGGACCCCAGCCCCUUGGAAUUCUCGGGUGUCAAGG", "log2 enrichment": 1.83}
{"Sequence": "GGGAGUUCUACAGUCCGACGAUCCCUGUGCUACACAUCGUAUGUACCGAAUCAAAGUGUGUGUGUGUGAAAUGUGUGUGUGAAAAAAGUAUUAUGUUACGCCGUUCGGAUCUGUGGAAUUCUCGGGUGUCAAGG", "log2 enrichment": -0.163}
{"Sequence": "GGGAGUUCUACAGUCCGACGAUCAAGUCCUGUGCUACACAUCGUAUGUACCGAAUCAAACCCAAAUUUUUAAACCCAAAAAAGUAUUAUGUUACGCCGUUCGGAUCUGCACUUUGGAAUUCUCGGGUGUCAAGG", "log2 enrichment": -0.603}
{"Sequence": "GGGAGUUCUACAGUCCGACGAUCUGAGAAACUUGCUCAAAUAUUGGCAGCUAGACAGUUAGAAAUUAAACAGAUUCCAUCUGAUGGCCACUGUAUGUAUAAAGCCAUUGAAGAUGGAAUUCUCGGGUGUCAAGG", "log2 enrichment": -1.09}
{"Sequence": "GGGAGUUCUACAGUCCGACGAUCUUCUCCUGCCCCGAAGCUCGCUGUGCGUGUGCGUGUGUGUGUCCCUCCGCCAACGCCGCCACCUCAGCCCGGCAAAUGAACUCCGUCCGAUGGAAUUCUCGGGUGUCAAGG", "log2 enrichment": 1.04}
{"Sequence": "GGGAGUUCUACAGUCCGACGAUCCUCAAGUCCUGUGCUACACAUCGUAUGUACCGAAUCGGCCGGGCCGGGGCCGGAAAGUAUUAUGUUACGCCGUUCGGAUCUGCACUUCCAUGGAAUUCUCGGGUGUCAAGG", "log2 enrichment": -0.16}
{"Sequence": "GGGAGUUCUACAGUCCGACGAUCUGGGAGGUGGAUUUUGUUUAUUUUCUUAGCUCAUUUCCAGGGGUGGGAAUUUUUUUUUAAUAUGUGUCAUGAAUAAAGUUGUUUUUGAAAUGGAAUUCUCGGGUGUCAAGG", "log2 enrichment": 0.161}
{"Sequence": "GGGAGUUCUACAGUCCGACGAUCUGGGAGGUGGAUUUUAUUUAUUUUUUUAGCUCAUUUCCAGGGGUGGGAAUUUUUUUUUAAUAUGUGUCAUGAAUAAAGUUGUUUUUGAAAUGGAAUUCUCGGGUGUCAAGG", "log2 enrichment": 0.219}
{"Sequence": "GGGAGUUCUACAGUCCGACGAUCCAAGUCCUGUGCUACACAUCGUAUGUACCGAAUCGGGUUUUGGUUUUGGUUUUGGGAAAGUAUUAUGUUACGCCGUUCGGAUCUGCACUUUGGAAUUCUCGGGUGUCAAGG", "log2 enrichment": -1.12}
{"data": "Study 3", "target": "Hepatocyte nuclear factor 3-beta, forkhead domain (FOXA2, Homo sapiens, UniProt Q9Y261, residues 142-269)", "method": "protein-binding microarray", "form": "hairpin DNA", "matrix": "in vitro", "concentration": "not given", "notes": "whole hairpin DNA, median over replicate spots", "reference": "not given", "reading": "higher = stronger binding", "shared flanks, not repeated": "GAGGCCAT … ATGGCCTCACACTC", "Construct (chain)": "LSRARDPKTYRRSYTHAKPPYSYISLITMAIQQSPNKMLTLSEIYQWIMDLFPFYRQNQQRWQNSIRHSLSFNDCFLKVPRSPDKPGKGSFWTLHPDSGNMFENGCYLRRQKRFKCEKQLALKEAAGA"}
{"Sequence": "ATAACCAACGCCTCCTGGCGTTGGTTAT", "median fluorescence [a.u.]": 2910}
{"Sequence": "GCAAGCAACGCCTCCTGGCGTTGCTTGC", "median fluorescence [a.u.]": 3240}
{"Sequence": "GCGACCAACGCCTCCTGGCGTTGGTCGC (5mC at 34)", "median fluorescence [a.u.]": 3380}
{"Sequence": "TTAAACAACGCCTCCTGGCGTTGTTTAA", "median fluorescence [a.u.]": 2780}
{"Sequence": "GCAAACGACGCCTCCTGGCGTCGTTTGC (5mC at 14)", "median fluorescence [a.u.]": 3380}
{"Sequence": "TTAACCAACGCCTCCTGGCGTTGGTTAA", "median fluorescence [a.u.]": 2880}
{"Sequence": "GTAACCGACGCCTCCTGGCGTCGGTTAC", "median fluorescence [a.u.]": 3430}
{"Sequence": "CGAAACAACGCCTCCTGGCGTTGTTTCG (5mC at 9 35)", "median fluorescence [a.u.]": 3100}
{"Sequence": "GCACGCAACGCCTCCTGGCGTTGCGTGC", "median fluorescence [a.u.]": 3470}
{"data": "Study 4", "target": "Interferon regulatory factor 5, full length, phosphomimetic (IRF5, Homo sapiens, UniProt Q13568-2, residues 1-514, K96S/S451D/S453D/S456D/S462D)", "method": "protein-binding microarray", "form": "double-stranded DNA, one strand shown", "matrix": "in vitro", "concentration": "250 nM", "notes": "60-bp whole probe", "with": "salmon DNA 0.4 mg/ml", "reference": "random background probes", "reading": "higher = stronger binding", "shared flanks, not repeated": "GCCTAGCAC … GTCTTGATTCGCTTGACGCTGCTG"}
{"Sequence": "TCATTTTTCTAAACCATACTGTGCTAG", "log fluorescence [z-score]": 1.02}
{"Sequence": "TTAGGTTTCCTTCTCCTTAAGTGCTAG", "log fluorescence [z-score]": 1.53}
{"Sequence": "TTAGGTTTCGACTTTGGGTTAGTGCTA", "log fluorescence [z-score]": 6.41}
{"Sequence": "CAACTTTTTTTAATTGAGAAGTGCTAG", "log fluorescence [z-score]": 0.461}
{"Sequence": "TCAAATTTTTTTCTAAGACTGTGCTAG", "log fluorescence [z-score]": 0.726}
{"Sequence": "TTAGATCTCAGTTTCGATTCGTGCTAG", "log fluorescence [z-score]": 8.93}
{"Sequence": "GCCGGTATCGACTATCGGGACGTGCTA", "log fluorescence [z-score]": 4.56}
{"Sequence": "TTAGAACTGAGACCGGATTAGTGCTAG", "log fluorescence [z-score]": -0.391}
{"Sequence": "TCATAAATATCTTTGTTACTGTGCTAG", "log fluorescence [z-score]": 0.711}
{"Sequence": "AGTGTTTGCCCTATTTAAAAGTGCTAG", "log fluorescence [z-score]": 0.101}
{"Sequence": "GACGATCTCAGTTTCAAGACGTGCTAG", "log fluorescence [z-score]": 0.852}
{"Sequence": "CTTTTATGCTCTTTCTACATGTGCTAG", "log fluorescence [z-score]": 1.68}
{"Sequence": "TGTAGAGTAGCTTTCTGAGGGTGCTAG", "log fluorescence [z-score]": 0.476}
{"Sequence": "TTAGGTTTCCCTTCCCTTTAGTGCTAG", "log fluorescence [z-score]": 1.13}
{"Sequence": "GTGTATATGTGATTAAAATAGTGCTAG", "log fluorescence [z-score]": 0.4}
{"Sequence": "TTAGGTATCCTTATCCGTTAGTGCTAG", "log fluorescence [z-score]": 0.254}
{"note": "Some of these lines once more (study 1):"}
{"Variant": "N6S", "normalised enrichment score": 2.42}
{"Variant": "R13I", "normalised enrichment score": 2.84}
{"Variant": "N9S", "normalised enrichment score": 3.61}
{"Variant": "P1A", "normalised enrichment score": 3.06}
{"Variant": "L7E", "normalised enrichment score": 0.618}
